Results from different studies.
Lines come from different studies, so protocols differ. Values joined by “and” are separate records of one study, mostly repeats; a detail may differ. Numbers after ± are the reported error.

CC(=O)[O-].O.O.O.O.[Mn+2].[O-]c1ccc(Br)cc1C=NCCN1CCOCC1
ferric reducing power (FRAP; 40 µM): 9.74%

COc1ccc(C(=O)CCc2cc(C(CCc3ccc(O)cc3OC)c3ccc(O)cc3)c(O)cc2OC)cc1 (racemic)
LTB4 level (human blood; 3 µM, added: A23187): 3810 ± 1280 pg/mL

COC1CN([C@H]2CC[C@H]([C@@]3(C)Oc4c(Cl)cc(C(=O)NCc5c(SC)cc(C)[nH]c5=O)c(C)c4O3)CC2)C1
log2 fold change (RNA-seq, item: KHDRBS3; human, whole blood; dose not given, 24 h; relative to: pretreatment baseline): 4.59

CN1CCC[C@]1(C)/C=C/S(=O)(=O)NC(=O)Nc1c2c(cc3c1CCC3)CCC2
IL-18 inhibition (human, whole blood ex vivo; 50 mg twice daily, day 1, 3 h, multiple ascending dose, added: LPS and ATP): 82.4%

COCCOCCOCCNC(=O)Cc1cc(CC(=O)N[C@H]2C[C@H]3C(=O)Nc4cc(OCCOCCOCCOC)cc(n4)C(=O)N4CCC[C@H]4C(=O)Nc4cc(OCCOCCOCCOC)cc(n4)C(=O)N4CCC[C@H]4C(=O)Nc4cc(OCCOCCOCCOC)cc(n4)C(=O)N3C2)cc(CC(=O)N[C@H]2C[C@H]3C(=O)Nc4cc(OCCOCCOCCOC)cc(n4)C(=O)N4CCC[C@H]4C(=O)Nc4cc(OCCOCCOCCOC)cc(n4)C(=O)N4CCC[C@H]4C(=O)Nc4cc(OCCOCCOCCOC)cc(n4)C(=O)N3C2)c1
ΔH (anion binding, ITC; water/acetonitrile 70 vol% (87.1 mol%); 298 K, added: sodium sulfate): -3.107 ± 0.0239 kcal/mol

CCCCCCCCCCCCCCCC(=O)OCC(CSC[C@H](N)C(=O)N[C@@H](CO)C(=O)N[C@@H](CCCCN)C(=O)N[C@@H](CCCCN)C(=O)N[C@@H](CCCCN)C(=O)N[C@@H](CCCCN)C(=O)NCCCCCC(=O)N[C@@H](CCCCN)C(=O)N[C@@H](CC(C)C)C(=O)N[C@H](C(=O)N[C@@H](Cc1ccccc1)C(=O)N[C@@H](Cc1ccccc1)C(=O)N[C@@H](Cc1ccc2ccccc2c1)C(=O)O)C(C)C)OC(=O)CCCCCCCCCCCCCCC (some centres unmarked)
Iba1 level (APP/PS1 transgenic mouse, hippocampus; intrahippocampal, dose not given, unit not given; relative to: injected over adjacent side): 1.23 and 1.82 and 0.625 and 1.83

O=S(=O)(NCc1ccncc1)c1ccc(C2CCCCC2)cc1
IBA1 immunoreactivity reduction (immunohistochemistry; CK-p25 mice female, hippocampus; ip, 0.3 mg/kg daily, 6 wk; relative to: vehicle): ~28%

COc1cc(O)ccc1CCC(c1ccc(O)cc1)c1cc2c(c(C)c1O)OC(c1ccc(O)cc1)CC2 (mixture of isomers)
amount (item: 15-HETE; human whole blood; 0.3 µM, added: Escherichia coli): 3690 ± 881 pg/mL blood

Some of these lines once more:
COc1cc(O)ccc1CCC(c1ccc(O)cc1)c1cc2c(c(C)c1O)OC(c1ccc(O)cc1)CC2 (mixture of isomers)
amount (item: 15-HETE; human whole blood; 0.3 µM, added: Escherichia coli): 3690 ± 881 pg/mL blood
